# Measured values collected from several papers.
# Each numbered part is a random draw from the data of one study; scales do not carry over between parts.

# Set 1 — method: universal PBM; form: double-stranded DNA, one strand shown; sample: in vitro; concentration: 600 nM; reading: higher = stronger binding
# Target: Sal-like protein 4, full length isoform A (SALL4, Homo sapiens, UniProt Q9UJQ4, residues 1-1053)
# UniProt Q9UJQ4, sequence (whole entry, looked up): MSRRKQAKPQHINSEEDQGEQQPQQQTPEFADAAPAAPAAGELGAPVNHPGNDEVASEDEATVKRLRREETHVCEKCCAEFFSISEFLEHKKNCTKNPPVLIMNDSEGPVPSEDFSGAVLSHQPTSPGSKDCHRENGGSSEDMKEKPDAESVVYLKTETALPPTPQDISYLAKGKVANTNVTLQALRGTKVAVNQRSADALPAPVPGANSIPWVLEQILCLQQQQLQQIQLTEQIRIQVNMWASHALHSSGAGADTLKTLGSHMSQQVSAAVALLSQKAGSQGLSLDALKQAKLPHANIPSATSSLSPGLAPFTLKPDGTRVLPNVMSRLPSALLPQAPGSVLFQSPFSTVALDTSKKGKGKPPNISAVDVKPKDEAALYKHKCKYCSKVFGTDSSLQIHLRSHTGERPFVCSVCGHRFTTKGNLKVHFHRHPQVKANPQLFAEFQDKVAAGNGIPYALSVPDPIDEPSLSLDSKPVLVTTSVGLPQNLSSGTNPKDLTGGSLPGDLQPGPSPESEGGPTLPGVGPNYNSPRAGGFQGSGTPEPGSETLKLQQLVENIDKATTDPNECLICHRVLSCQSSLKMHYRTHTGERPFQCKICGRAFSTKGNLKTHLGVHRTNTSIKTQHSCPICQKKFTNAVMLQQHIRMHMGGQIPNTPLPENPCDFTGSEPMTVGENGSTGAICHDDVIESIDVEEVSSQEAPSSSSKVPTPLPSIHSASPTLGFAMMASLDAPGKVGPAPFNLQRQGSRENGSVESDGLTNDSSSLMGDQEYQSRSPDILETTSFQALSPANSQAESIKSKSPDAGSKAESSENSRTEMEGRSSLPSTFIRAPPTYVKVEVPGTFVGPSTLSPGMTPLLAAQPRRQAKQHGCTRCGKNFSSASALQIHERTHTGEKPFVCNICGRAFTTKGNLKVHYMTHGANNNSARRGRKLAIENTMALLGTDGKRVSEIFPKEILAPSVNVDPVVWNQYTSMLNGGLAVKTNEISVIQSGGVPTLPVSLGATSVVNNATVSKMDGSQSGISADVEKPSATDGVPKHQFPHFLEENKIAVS
# Notes: 8-mer, flanks averaged, mean of replicates
Strand,E-score
TATACCGA,0.2
CAGCCAGA,-0.223
AGGGCAAT,-0.13
AAGGCTAG,0.0756
AGTCTCAG,-0.0654
AGGCGCAT,-0.256
ACAAACTA,0.208
GCCCGTAA,-0.174
ATGACGGC,-0.154
CCACGCCC,-0.374
ATACCTAG,0.126
GTTTCAGA,0.0428
TCCGAGGA,-0.283
TCGATAAA,0.269

# Set 2 — method: aptamer microarray, sandwich; form: DNA with 2'F-ANA; sample: in vitro; concentration: 200 nM; added: Cy3 exosite-II aptamer, 400 nM; reading: higher = stronger binding; strand: GGTTGGTGTGGTTGG
# Target: Prothrombin, mature alpha-thrombin (F2, Homo sapiens, UniProt P00734)
# Notes: whole 15-mer aptamer, many near background
Modification,mean fluorescence intensity [a.u.]
2'F-ANA at 2 5 6,83.1
2'F-ANA at 3 8 9 10 11 13 15,443
2'F-ANA at 1 2 3 5 6 7 8 9 10 12 14 15,102
2'F-ANA at 3 5 8 10 12 14 15,52
2'F-ANA at 6 7 8 12 14,277
2'F-ANA at 1 2 7 8 9 11 15,152
2'F-ANA at 3 4 5 9 11 13 15,65.9
2'F-ANA at 1 2 3 6 7 8 9 10,136
2'F-ANA at 1 6 9 10 11 12 13 14 15,63.5
2'F-ANA at 1 3 7 8 9 12 13 14 15,140
2'F-ANA at 1 2 4 6 8 9 14 15,52.3
2'F-ANA at 2 3 7 9 11 12 15,891
2'F-ANA at 3 4 5 6 7 9 10 11,51.2
2'F-ANA at 5 7 9 13 14 15,54.3
2'F-ANA at 1 3 4 5 9 10 14,60.8

# Set 3 — method: RNA Bind-n-Seq; form: RNA; sample: in vitro; concentration: 200 nM; notes: whole 134-nt RNA, ends assumed; added: 150 mM LiCl; relative to: input library; reading: higher = stronger binding; all molecules: 7-deaza-guanosine replaces G
# Target: Ras GTPase-activating protein-binding protein 1, full length (G3BP1, Homo sapiens, UniProt Q13283)
# UniProt Q13283, sequence (whole entry, looked up): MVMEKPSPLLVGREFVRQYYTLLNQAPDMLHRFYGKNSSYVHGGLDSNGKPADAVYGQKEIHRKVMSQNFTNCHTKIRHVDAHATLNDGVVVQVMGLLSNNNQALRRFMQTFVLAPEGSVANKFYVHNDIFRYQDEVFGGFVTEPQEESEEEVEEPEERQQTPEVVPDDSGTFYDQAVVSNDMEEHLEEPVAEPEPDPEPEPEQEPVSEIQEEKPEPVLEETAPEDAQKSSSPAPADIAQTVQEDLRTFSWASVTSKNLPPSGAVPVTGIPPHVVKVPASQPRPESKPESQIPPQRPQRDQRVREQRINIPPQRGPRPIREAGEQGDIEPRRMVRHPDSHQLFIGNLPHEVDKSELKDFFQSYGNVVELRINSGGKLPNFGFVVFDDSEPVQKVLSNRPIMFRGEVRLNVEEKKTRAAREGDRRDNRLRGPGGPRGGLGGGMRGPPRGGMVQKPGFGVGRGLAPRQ
# Constant ends, left off below: GGGAGUUCUACAGUCCGACGAUC … UGGAAUUCUCGGGUGUCAAGG
Strand,log2 enrichment
ACCAUGCAGGUGGGCAUCUUUGGGAAGUGGGGCAAGGGGGGGAUAGGGAGGGGGGUAACACUUUGGGAACAGGUGGUCCAAGGUCGUUUC,0.451
CCUCAAGUCCUGUGCUACACAUCGUAUGUACCGAAUCGGAGGAGGUUUUUGGAAAGUAUUAUGUUACGCCGUUCGGAUCUGCACUUCCAG,-0.012
AAGUCCUGUGCUACACAUCGUAUGUACCGAAUCAAACCCCCAAAUUUAAACCCAAAAAAGUAUUAUGUUACGCCGUUCGGAUCUGCACUU,1.56
UGGCCCUGGUGGCAUGCGGGGAGGAAGAGGUGGCCUCAUGGAUCGUGGUCGUCCCGGUGGAAUGUUCAGAGGUGGCCGUGGUGGAGACAG,0.763
UAACUUUAGAGGAGGAUCUGAUGGAUAUGGCAGUGGACGUGGAUUUGGGGAUGGCUAUAAUGGGUAUAGAGGAGGACCUGGAGGUGGCAA,0.0344
UAACUUUAGAGGAGGCUCUGAUGGAUAUGGCAGUGGACGUGGAUUUGGGGAUGGCUAUAAUGGGUAUGGAGGAGGACCUGGAGGUGGCAA,-0.283
GCAGGAAGUAAAAACAAAUGGAAAUUCUUCGGAUAGUGGCAGGGGUGGGGGUUGCUAAGGAAAGGGUGGGAUGGGAGUGGGUAAAGAGUU,-0.0659
CCUGUGCUACACAUCGUAUGUACCGAAUCGGGAAAAAAAGGAAAAAAAGGAAAAAAAGGGAAAGUAUUAUGUUACGCCGUUCGGAUCUGC,0.00427

# Set 4 — method: protein-binding microarray; form: double-stranded DNA, one strand shown; sample: in vitro; concentration: not given; reading: higher = stronger binding
# Target: Hepatocyte nuclear factor 3-beta, forkhead domain (FOXA2, Homo sapiens, UniProt Q9Y261, residues 142-269)
# Notes: k-mer, scored over probes, only values ≥0.25
# Construct (chain): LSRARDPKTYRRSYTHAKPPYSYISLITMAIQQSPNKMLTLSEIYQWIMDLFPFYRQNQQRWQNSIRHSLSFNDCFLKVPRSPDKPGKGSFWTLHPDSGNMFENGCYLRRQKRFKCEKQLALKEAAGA
Strand,E-score
ATAACGGA,0.275
AATCACAT,0.256
AAACAAAC,0.314
ATATAACA,0.406
TATTAGCA,0.254
ATTGTATC,0.283
TAACTATA,0.357
GAATACAA,0.267
AACACTAT,0.254
AAAGTATA,0.326
TAGATCAA,0.26
TAATACTA,0.313
TACACATA,0.408

# Set 5 — method: competition protein-binding microarray; form: double-stranded DNA, one strand shown; sample: in vitro; concentration: 2 µM; added: Cbf1 competitor, 0.05 µM; reading: higher = stronger binding; constant ends, left off below: … GTCTTGATTCGCTTGACGCTGCTG
# Target: Phosphate system positive regulatory protein PHO4, full length, GST-tagged (PHO4, Saccharomyces cerevisiae, UniProt P07270, residues 1-312)
# Notes: whole 60-bp probe, lowest competitor level
# Target sequence (chain): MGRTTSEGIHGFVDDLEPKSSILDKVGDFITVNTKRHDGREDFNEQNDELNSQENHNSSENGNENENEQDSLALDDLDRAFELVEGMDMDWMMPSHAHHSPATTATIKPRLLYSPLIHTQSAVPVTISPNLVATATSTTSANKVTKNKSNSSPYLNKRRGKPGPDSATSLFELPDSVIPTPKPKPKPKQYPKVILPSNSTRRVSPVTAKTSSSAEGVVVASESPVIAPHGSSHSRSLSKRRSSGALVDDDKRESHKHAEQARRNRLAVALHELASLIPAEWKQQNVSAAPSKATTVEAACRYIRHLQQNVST
Strand,fluorescence intensity [a.u.]
GACACATCGCTAGAAAAATTGGCATTACTAGAAAGC,3160
CATACCCAACCTTGGATAGTGGGTGAAGATATTTGT,3790
TACGTTCTGAGAAAGCACGTGAAGGAAGAGAAAACC,13200
CGTCCTAGTGATTGTGAAGTGGGTGCCATGAGGAAG,6650
CGTCCTAGTGATTGTTGGGTGGGTGCCATGAGGAAG,7640
ACCTTTGGAACTCACCAGGTGATATATTCATCAGCA,3980
AACTGGTGGAGGTGGAACGTGTCCAGGCAGTGCAGG,13600
CTTTCCCGATCTTGGGAGGTGGGTGTAGCACATTTG,4800
AAAGCGGTAATTTGATGCGTGGGTGCAGATATCTAT,8270
TTCTGAATATGCGGCCACGTGTGGAATGATGTCCTG,14800
AAATTACTAAGTTTTCACGTGCCATACCCCGTATGA,15700
TTCACAGATATTTCTTCCGTGATGGTTTAATGGTCA,3660
GCATTTGTCTTCTTTCATTTGAAATCTTCATAATCT,2730
GTATTATTATTCAAACGCGTGGTGATAGTCCCTTGA,11300
CCCGAACTTTTTTAGCACGTGAAAATGGAGAAGTCT,15700
CGCCCAAGGGACAATCACATGCAGAGAAGTTTACGA,8220
CTAACGAAGGTTTGAAAAGTGGGTGACAAGCCAAGT,3620
AAAGCGGTAATTTGAGACGTGGGTGCAGATATCTAT,6470

# Set 6 — method: protein binding microarray; form: double-stranded DNA, one strand shown; sample: in vitro; concentration: not given; relative to: not given; reading: higher = stronger binding
# Target: Histone acetyltransferase KAT6A, both winged helices, GST fusion (KAT6A, Homo sapiens, UniProt Q92794, residues 1-181)
# Notes: 8-mer, flanks averaged, mean of 2 arrays, mostly near background
# Construct (chain): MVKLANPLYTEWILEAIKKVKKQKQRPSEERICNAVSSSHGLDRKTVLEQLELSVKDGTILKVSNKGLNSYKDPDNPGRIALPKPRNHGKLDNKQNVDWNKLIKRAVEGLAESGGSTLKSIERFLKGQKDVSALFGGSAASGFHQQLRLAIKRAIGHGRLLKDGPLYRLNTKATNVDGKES
Strand,E-score
AGCTTAGG,-0.187
AAGGATCT,-0.131
CCACCCAC,-0.296
GACACTAA,-0.00103
AACCGATT,0.086
CATCTGCA,-0.0872
CACTTGCA,-0.266
TATAAGGA,-0.0903
CGCCTAGC,0.142
AGTGTAGC,-0.0448
AGATACCG,0.217
CCGCTAAC,0.157
GACGCCGC,0.358
AACTTAAT,-0.121
CATATGCG,0.195

# Set 7 — method: RNA Bind-n-Seq; form: RNA; sample: in vitro; concentration: 365 nM; relative to: no-protein control; reading: higher = stronger binding
# Target: RNA binding protein fox-1 homolog 2, RRM domain, GST-SBP tag (RBFOX2, Homo sapiens, UniProt O43251-10, residues 100-194)
# Notes: natural RNA segment, single round, ends assumed
# Constant ends, left off below: GGGAGUUCUACAGUCCGACGAUC … UGGAAUUCUCGGGUGCCAA
# Target sequence (chain): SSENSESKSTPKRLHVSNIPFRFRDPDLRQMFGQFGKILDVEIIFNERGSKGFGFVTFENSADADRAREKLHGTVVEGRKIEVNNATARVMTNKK
Strand,RBNS enrichment (R)
UGGAGGCUGCAGUGACUUUUUUUGGCUCAAGAUCCACAAGCAUUAGAGUAGACUGGGCCAACAAGUCAACAAGUGGUGGCGUGUGCAAACGGGCUGCCCUAGUCAAGCCC,0.86
GGGAAGUGUGCAGUGUGAGCUCUGCCCUCCUGUUAAGUUCUCCAGCUCUAGACAUGUCUCUUGGUGUGUGUUUUAUCUACUGGUGUUAUUCUAUAUGGUAGAAUUACCAA,0.381
UUCUGUACCACUUGAGGUAUAUGUUUAGUUUUUUUACGUAUCUUCUAAGAAGCUCAGUUUUGCGGUUUUGAUUUCAGGUUGCAAACAUUUAAAUUGUGCACAGCAACAGG,0.295
CACCCCUUUCCUUCCCUACCCAGCCAGGCUGGGCUGCCUCCUGCCCCCCUCGCUAGCCAUUUGGGGGUGGCAAGGGGGUGUGGUUGUUUCUCGUGGUUGUGUGUGUUUGU,0.605
UCUCAGGUCAGUAGGCGCAGAAACGCCUCAUGAUGAAGAUUCUUGAGCCCCAUUUCCAAGACCCCUCACAUCCAAUCCUGUCCUGUAACAUCCAUCAAGGAUUUCCAUAG,0.372
GAUGACCAGAAUGAAAGCUUGCUCUGCCUCCUGCCAGCCAGAAUUGGUGGCGGGACUUGGGGAUACAGCGUGAAGGUGGGGAAGUUGCACAGCAGAAAACAGAAUUGAAG,1.16
UAUAAUUUUUAAAAAAUCUUUUAUUUUAAUACAUUGUAGGAAAUCUUCAUAAUUUGAGACAGUUCUGCAGCAUGGCUUUUUACAUCUGUAAAUAAAUAAUUUUAGAAGUC,2.08
GUCCCCAUUAAAGGACCCUCCAGAGAGGGACAGUAACUGUGCAUGAGAAGCCGCUCCCAUAAGCCUCCUCAGCCAGAUGUCAUGGGUGGAACUGGAGCUGUGUCGGGGCC,6.47
UCUGAAUUUAACAAAUGCUUAGUCUCAGCAGCCUCCGGGGGAAAAAAGCUUAGCCUAGCAGUCAGUGACUUACUUGCACUUUUUGCACAUAGAUAUAAAGUAAAAUUAUG,0.662
UACUGGAUGAGCAAGGAGCAUGCUUCCUUUGGGACAUUCUUACAGCAGGGUGUCUCUCCAACAGCCCGACAGGCCUCAUCUUUUUGGUUGGAUACCUUUGAACUCCAUGG,2.68
GCUUCUGUUUUGCCAGUUAUUUCCGACAGUACUAUCAGAAGGAAGUGGUCAGCAGCUGUUCCUAGCCUGUGAGCCGAAAGCAAAUCAGAAUUUAUAAAUCACAUCUCAUC,0.44
UCCUCCUUCCCCAGGACCUGAGCUCCCAGCAUCUGCAGACGACCCCCGCAGCCUUUCCCUCGGACCCCCCUCGAAGCCCCCUGGACUGAUUCCCACCCACGACUCACAGG,1.44

# Repeated from above (set 4):
Strand,E-score
ATAACGGA,0.275
AATCACAT,0.256
AAACAAAC,0.314
ATATAACA,0.406
TATTAGCA,0.254
ATTGTATC,0.283
TAACTATA,0.357
GAATACAA,0.267
AACACTAT,0.254
AAAGTATA,0.326
TAGATCAA,0.26
TAATACTA,0.313
TACACATA,0.408
